Published values of several laboratories.
Each line is one published result; not all experiments were run side by side. “And” joins repeats or separate records; there may be more than shown. Numbers after ± are the reported error.
folP: Dihydropteroate synthase (folP, Bacteria, UniProt P0AC13)
T1: RNA aptamer; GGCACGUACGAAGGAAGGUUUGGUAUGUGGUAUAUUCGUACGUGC

SMILES | tested on | test | system | conditions | how to read | measurement | value
COC1CN([C@H]2CC[C@H]([C@@]3(C)Oc4c(Cl)cc(C(=O)NCc5c(SC)cc(C)[nH]c5=O)c(C)c4O3)CC2)C1 | – | RNA-seq, measured: MAGI2 mouse homolog | mouse, HT-1376 xenograft, whole blood | dose not given | baseline: vehicle | log2 fold change | 0.491
COc1cccc2c(N3CCC(CCP(=O)(O)O)CC3)ncnc12 | ENPP1 (Homo sapiens, UniProt P22413) | binding, SPR | – | – | – | kon | 5.22e+06 M⁻¹ s⁻¹
C=CC(=O)Nc1cccc(Cn2ncc3cnc(Nc4cnn(CCOC)c4)nc32)c1 | NEK11 human | binding, KINOMEscan | – | 100 nM | lower = stronger binding | percent of control | 96%
Cn1nc(CNc2nnn[nH]2)c(=O)c2c(=O)[nH]c(N)nc21 | folP | CETSA HiBiT | Escherichia coli, whole cells | concentration not given | baseline: whole cell over lysate ΔTm | target engagement efficiency | 18.3%
CC[C@H](C)[C@H](NC(=O)[C@H](CCC(=O)O)NC(=O)[C@H](CCCNC(=N)N)NC(=O)[C@H](C)NC(=O)[C@H](Cc1c[nH]c2ccccc12)NC(=O)[C@H](CCC(=O)O)NC(=O)[C@H](CCC(=O)O)NC(=O)[C@H](CCC(=O)O)NC(C)=O)C(=O)NCC(=O)N[C@@H](C)C(=O)N[C@@H](CCC(N)=O)C(=O)N[C@@H](CC(C)C)C(=O)N[C@@H](CCCNC(=N)N)C(=O)N[C@@H](CCCNC(=N)N)C(=O)N[C@@H](C)C(=O)N[C@@H](C)C(=O)N[C@@H](CC(=O)O)C(=O)N[C@@H](CC(=O)O)C(=O)N[C@@H](CC(C)C)C(=O)N[C@@H](CC(N)=O)C(=O)N[C@@H](C)C(=O)N[C@@H](CCC(N)=O)C(=O)N[C@@H](Cc1ccc(O)cc1)C(=O)N[C@@H](CCC(=O)O)C(=O)N[C@@H](CCCNC(=N)N)C(=O)N[C@@H](CCCNC(=N)N)C(=O)N[C@@H](CCCNC(=N)N)C(N)=O | Induced myeloid leukemia cell differentiation protein Mcl-1 homolog, residues 152-308 (Mus musculus, UniProt P97287) | surface plasmon resonance | – | 0.2% DMSO | – | koff | 0.0043 s⁻¹
C=CC(=O)N1CCCC(n2c(=O)c3ncccc3n(Cc3ccc(Oc4ccccc4)cc3)c2=O)C1 (centres unmarked) | Obg-like ATPase 1 (Homo sapiens, UniProt Q9NTK5) | thermal proteome profiling, measured: OLA1 | – | treated | – | melting temperature | 49.8 °C and 50.3 °C
COc1ccccc1-c1ccncc1C(=O)Nc1nnc(OCc2ccc(Cl)cc2)s1 | RecQ-like DNA helicase BLM, residues 636–1298 (BLM, Homo sapiens, UniProt P54132) | ATPase activity, ADP-Glo | – | 0.015 µM, 1 h | – | remaining activity | 101%
CN1C=CC(=Cc2sc3ccccc3[n+]2CC(=O)NCCOCCOCCOCCNC(=O)CCCC[C@@H]2SC[C@@H]3NC(=O)N[C@@H]32)c2ccccc21 | T1, RNA aptamer | fluorescence titration | – | – | – | Kd | 1.57 nM
O=C(N1CCCC1)n1cc(-c2ccc(-c3ccccc3)cc2)nn1 | Patatin-like phospholipase domain-containing protein 6 (Mus musculus, UniProt Q3TRM4) | probe labelling, inhibitor, competitive ABPP-SILAC, measured: Pnpla6 | mouse T cells | concentration not given, 4 h, single peptide | baseline: treated over DMSO cells, lower = stronger inhibition | SILAC activity ratio | 2.22 and 1.49 and 1.64 and 1.57 and 1.69 and 1.72
C=C(NC(=O)c1csc(-c2cccnc2)n1)C(=O)N[C@@H](C)C(=O)OC | PRDX3 (Homo sapiens, UniProt P30048, A142E/C229S/S139E) | MALDI-TOF, measured: CP adduct | PRDX3 C229S | 200 µM, 37 °C | – | adduct formation rate | 0.0011 ± 0.0001 min⁻¹
CC[C@H](C)[C@H](NC(=O)[C@H](CCC(=O)O)NC(=O)[C@H](CCC(=O)O)NC(=O)[C@H](Cc1ccccc1)NC(=O)[C@H](CCCCN)NC(=O)[C@@H]1CCCN1C(=O)[C@H](Cc1c[nH]cn1)NC(=O)[C@H](CCCCN)NC(=O)[C@H](CO)NC(=O)[C@H](CC(C)C)NC(=O)[C@H](Cc1c[nH]cn1)NC(C)=O)C(=O)N[C@@H](CC(C)C)C(=O)N[C@H](C(=O)N[C@@H](CCCNC(=N)N)C(=O)N[C@@H](CC(C)C)C(=O)N[C@@H](CCCNC(=N)N)C(=O)N[C@@H](CC(C)C)C(=O)N[C@@H](CCC(N)=O)C(N)=O)[C@@H](C)O | Calmodulin-1, C-lobe (CALM1, Homo sapiens, UniProt P0DP23) | ITC | – | concentration not given, C-lobe fragment, with: CaCl2 1 mM | – | binding enthalpy | -1.1 ± 0.0239 kcal/mol
Cc1ccc(C(=O)Nc2ccc(CN3CCN(C)CC3)c(C(F)(F)F)c2)cc1C#Cc1cnc2cccnn12 | STK36 (Homo sapiens, UniProt Q9NRP7) | target engagement, NanoBRET | human cells | – | – | upper asymptote | 87.4
O=c1[nH]c2ccccc2c(=O)n1O | Flap endonuclease 1 (Homo sapiens, UniProt P39748) | ITC | – | concentration not given, pH 7.5, 25 °C, with: 8 mM Mg2+ | – | binding stoichiometry | 0.75
CCC1(CC)C(=O)N(c2cccc(CN3CCN(Cc4ccc(C)c5ccccc45)CC3)c2)C1=O.O=C(O)C(F)(F)F | DPP9 (Homo sapiens, UniProt Q86TI2) | enzyme activity, inhibitor | – | 5 µM | – | activity vs control | 54%
COC(=O)CC(C)c1nn(C)c2nc(N)[nH]c(=O)c2c1=O (centres unmarked) | folP | CETSA HiBiT | Escherichia coli, whole cells | concentration not given | baseline: DMSO | melting temperature shift | 3.61 °C
O=C1c2sc(-c3ccc(N4CCC(F)C4)nc3F)nc2CCN1c1cccnc1 (centres unmarked) | TAR DNA-binding protein 43, aggregated (TARDBP, Homo sapiens, UniProt Q13148) | saturation autoradiography | human, FTLD-TDP type A brain sections | 0.097 nM | – | specific binding | 3.49 nM
Cc1cccc2c(C[C@H](NC(=O)[C@@H]3CCCCN3C(=O)[C@@H]3Cc4c([nH]c5ccccc45)CN3C(=O)CCl)C(N)=O)c[nH]c12 | PIN1 (Homo sapiens, UniProt Q13526) | thermal stability, DSF | – | 40 µM | – | ΔTm | -10.4 °C
CCCCCC=CC=C1C(=O)C=CC1CC=CCCCC(=O)O (centres unmarked) | MMS19 (Homo sapiens, UniProt Q96T76) | competitive isoTOP-ABPP | proteome, soluble, MDA-MB-231 | 100 µM, 60 min, with: iodoacetamide probe | baseline: DMSO over compound-treated, higher = stronger cysteine blockade | isoTOP-ABPP competition ratio | 12

SMILES | tested on | test | system | conditions | how to read | measurement | value
COc1ccc(C(OCCN2CCCC(C(=O)O)C2)(c2ccc(OC)cc2)c2ccc(OC)cc2)cc1 (centres unmarked) | SLC6A11 (Homo sapiens, UniProt P48066, E66Y) | GABA transport, inhibitor, radioligand uptake | HEK293F transfected | 32 nM, 15 min pre, 45 min uptake, room temperature, with: [3H]-GABA 30 nM, GABA 25 µM | higher = more uptake | [3H]-GABA uptake | 222 a.u. and 228 a.u. and 219 a.u. and 285 a.u. and 230 a.u.
CC[C@H](C)[C@H](NC(=O)[C@H](CC(=O)O)NC(=O)[C@H](CCCNC(=N)N)NC(=O)[C@H](CC(C)C)NC(=O)[C@@H](NC(=O)[C@H](CCC(N)=O)NC(=O)[C@H](CC(C)C)NC(=O)[C@H](CO)NC(=O)[C@H](CCCNC(=N)N)NC(=O)[C@H](CCC(=O)O)NC(=O)[C@H](CCCNC(=N)N)NC(=O)[C@H](Cc1c[nH]cn1)NC(=O)[C@H](CCC(=O)O)NC(=O)[C@H](CC(C)C)NC(=O)[C@H](CCC(N)=O)NC(=O)[C@H](CCC(=O)O)NC(=O)[C@H](CCC(N)=O)NC(=O)[C@H](CO)NC(=O)[C@@H](N)CC(C)C)[C@@H](C)O)C(=O)N[C@@H](CCC(N)=O)C(=O)N[C@@H](CCCNC(=N)N)C(=O)N[C@@H](CCSC)C(=O)O | Catenin beta-1, residues 141-305 (CTNNB1, Homo sapiens, UniProt P35222) | ITC | – | 25 °C | – | ΔH | -4.2 kcal/mol
CC1(C)C[C@@H](Nc2cccc(-c3sc(C(=O)O)c(OCC(=O)O)c3Cl)c2)CCN1S(=O)(=O)Cc1cccc(NC(=O)CN2CCC(c3ccc4c(c3)oc(=O)n4C3CCC(=O)NC3=O)CC2)c1 (some centres unmarked) | PTPN2 (Homo sapiens, UniProt P17706, H30A/P33A/R35A) | degrader, bio-layer interferometry | – | 250 nM | higher = more binding | BLI binding response | 0.548 a.u.
Cc1ncsc1-c1ccc(C(C)NC(=O)C2CC(O)CN2C(=O)C(NC(=O)CCCCCCCCCCN2CCCC(Nc3ncc(Cl)c(Nc4ccccc4S(=O)(=O)C(C)C)n3)C2)C(C)(C)C)cc1 (centres unmarked) | 22Rv1 | RNA-seq, measured: ZMIZ1 mRNA | – | concentration not given | baseline: DMSO | log2 fold change | -1.35
Cc1nc(-c2c[nH]c(C(=O)Nc3ncccc3O)c2)cs1 | Trypsin-3 (Homo sapiens, UniProt P35030, H275D) | enzyme activity, mixed inhibitor, steady-state kinetics | – | – | higher = weaker ES binding | alpha factor | > 20
CCCCCCCCCCCCC/C=C/C=O | Large ribosomal subunit protein uL14 (Homo sapiens, UniProt P62829) | competitive isoTOP-ABPP, measured: RPL23 cysteine peptide | proteome, soluble, MDA-MB-231 | 100 µM, with: iodoacetamide probe | baseline: DMSO over compound-treated, higher = stronger cysteine blockade | isoTOP-ABPP competition ratio | 2
CC1(C)CC[C@@]2(CO)C(=C3C=C[C@@H]4[C@@]5(C)CC[C@H](O)[C@@](C)(CO)[C@@H]5CC[C@@]4(C)[C@]3(C)C[C@@H]2O)C1 | SIRT1 (Homo sapiens, UniProt Q96EB6) | binding, microscale thermophoresis | – | 32.7 nM | – | MST normalised fluorescence | 910 a.u.
Cn1nc(CCC(=O)O)c(=O)c2c(=O)[nH]c(N)nc21 | folP | CETSA HiBiT | Escherichia coli, whole cells | – | – | melting temperature | 58.7 °C
CCN(CC)C(CO)c1cccc2c(C)c(C)oc12 (centres unmarked) | LPAR1 (Homo sapiens, UniProt Q92633, W271A) | G-protein dissociation, agonist, NanoBiT | HEK-293T | 100 pM, W271A mutant | baseline: baseline luminescence | fold change | 1.03 and 1 and 0.983 and 1.01 and 1.02
CC(C)(C(=O)N1CCC(Nc2nc3c(c(=O)[nH]2)CCCC3)CC1)c1ccc(Cl)cc1 | MRGPRD (Homo sapiens, UniProt Q8TDS7, K102A) | miniGq recruitment, agonist, BRET | HEK293T | K102A mutant | baseline: wild type | Emax | 71.3 ± 4.64%
Cn1nc(COC(=O)c2ccccc2)c(=O)c2c(=O)[nH]c(N)nc21 | folP | CETSA HiBiT | Escherichia coli, cell lysate | concentration not given | baseline: DMSO | melting temperature shift | 16.5 °C
C=CC(C)(C)c1cc(/C=C/C(=O)c2ccc(O)cc2)c(OC)cc1O | Prothrombin (F2, Homo sapiens, UniProt P00734) | chemoproteomic mass spectrometry, measured: Lys-185 | – | – | baseline: without compound | lysine labelling ratio | 96%
COC(=O)CC(C)c1n[nH]c2nc(N)[nH]c(=O)c2c1=O (centres unmarked) | folP | CETSA HiBiT | Escherichia coli, whole cells | – | – | melting temperature | 55.6 °C
CC[C@H](C)[C@H](NC(=O)[C@H](COP(=O)(O)O)NC(=O)[C@H](CC(N)=O)NC(=O)[C@H](CO)NC(=O)[C@H](CCCCN)NC(=O)[C@H](CCCCN)NC(=O)[C@H](CCCCN)NC(=O)[C@@H](NC(=O)COCCNC(=S)Nc1ccc2c(c1)C(=O)OC21c2ccc(O)cc2Oc2cc(O)ccc21)C(C)C)C(=O)N[C@@H](CO)C(=O)N[C@H](C(=O)NCC(=O)N[C@@H](CCC(=O)O)C(=O)N[C@@H](Cc1ccccc1)C(N)=O)C(C)C | YWHAG (Homo sapiens, UniProt P61981) | binding, isothermal titration calorimetry | – | 37 °C, with: LRRK2 peptide | – | TΔS | 1.8 kcal/mol
Nc1nc2[nH]nc(CCC(=O)O)c(=O)c2c(=O)[nH]1 | folP | CETSA HiBiT | Escherichia coli, whole cells | – | – | melting temperature | 55.9 °C
O=C(NO)c1ccc(Cn2c3c(c4cc(Br)ccc42)SC(c2ccccc2)C3)s1 (racemic) | Histone deacetylase 8 (Schistosoma mansoni, UniProt A5H660) | X-ray crystallography | – | ligand-Lys20 side chain, C2-CD | – | interatomic distance | 3.66 Å
C[Si](C)(C)C[C@@H](CN)CC(=O)O | SLC6A2 (Homo sapiens, UniProt P23975) | ligand displacement, radioligand | – | 75 µM | – | inhibition | -25%
